Assay results gathered from unrelated publications.
Parts stem from different laboratories: compare values within a part only. Positions count from the first letter of the parent shown.

Set 1
Target: RNA binding protein fox-1 homolog 2, RRM domain, GST-SBP tag (RBFOX2, Homo sapiens, UniProt O43251-10, residues 100-194)
Technique: RNA Bind-n-Seq
Form: RNA
Sample: in vitro
Concentration: 365 nM
Setting: natural RNA segment, single round, ends assumed
Baseline: no-protein control
Direction: higher = stronger binding
All sequences stand within: GGGAGUUCUACAGUCCGACGAUC … UGGAAUUCUCGGGUGCCAA
Residues (chain): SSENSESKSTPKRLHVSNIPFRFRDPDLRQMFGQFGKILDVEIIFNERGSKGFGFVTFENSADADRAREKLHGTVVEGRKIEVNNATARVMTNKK
Oligonucleotide | RBNS enrichment (R)
UGCAACAGAACACUUUGGUCUUCCUACACCAAGUCUGUGAGGGCAUCCAAGACUGAAUGAAAGCGCUUUUCUUAUGCAUACAAUGUGAGCAAGAACAAGAACUGUUUAAG | 0.38
UUAUCAGAACAAUUUUGUUACCAGGUCAGAAAUUGUGUUCUUUGACAACAGAUUGGAUCUGUAAUGUUGAUUAGUCUUUAGCCAUAACCACUACACUUUUAGAAAGACAG | 0.564
GUUACUGCAGCAUCUGGGCUGCCAGCCACAGGGAAGGGCCAAGCCCCAUGUAGCCCCAGUCAUCCUGCCCAGCCCUGCCUCCUGGCCAUGCCGGGAGGGGUCGGAUCCUC | 0.91
UGAUGCACACUUUUGCAAGCGUGUAAGAUGUUACCUGGUUUGUCUCUUUUGGAAAACAAAAAUCAGAAGGCUGCAUUCUAGAGGGCAGAGAAAUUCCCCCGAAGACUGAG | 0.326
CAGAAGAAACCAGCACCUCUUUCCCGUGGCUCCUGUGUUCAGAAUGUGGUAUUGGCUCUGGCCCAGCCUUCUCCCCUGUUACCCAUAAUUCUUGCCUCUUUCCAUAAUCC | 1.06
UUGUGGACAAACCUGGCAGUUGAGCUUUGCAGUCAAUUAUGCCGUAUCCCUGUGCAAACUCCCAUGUUCUAGUUGCUGUUAGCAUCCCCUUUGUUGCUGUCUGAGAAAGU | 2.03
CCGGAGGCAGCUUUUUUGAGCACGAGGGUCGCCCUUUGUGUGAAAACCAUUUCCAUGCUCAGCGUGGUUCGCUGUGUGCCACGUGUGGUCUCCCAGUGACCGGCCGCUGU | 0.266
ACACUAAGUUGGUGUACUGCCUCGACCUUUUUUCAGCUCAUCCUGGAACAUAUACAGAGUUGAGAGUUUUAGACAAUCUCUAGGUAGAGGAGACAAGAUGUAGACCCAGA | 0.554
CCAGGUGGGCUGGGUGGAAGGACCCUCAGCCACCAAGAACUGACGCCCUCAUGGCCCUAGACUAUGGGGUUGAAAACUCAUAGCAGUCAGGUUUGUUUACCAUCUCUCCG | 0.334
AUUCUUUGGCUGUGCCCUGAGGGUGCCUGCUCCUUUGUACGGUAACAGUCAAUUUUGAGGUUUCUUUCAGGAAGAGAAAGGGAUGGUUUUGAGGGGCUCAGAAAAUAGGA | 0.992
CUUGAAAGGUGAUUGGCAAAGUCAUGCAGGCCCGCCUUAAAGCGCUGAUUAGAACAGUCCAACACAGUCCGACCUCACUCAAUACCCACAACCAUCGAAAAUGGAUUCUU | 0.659
CUGCCGAGAAACUUUCAGUAGAUGAAGUCUCACAGUUGGUGAUUUCUCCGCUCUGUGGUGCAAUAUCCCUAUUUGUAGGGACUACAAGAAAUAACUUUGAAGGGAAAAAA | 0.503

Set 2
Target: ABI1, truncated, D143A, DHFR fusion (Arabidopsis thaliana)
Technique: DHFR PCA, deep sequencing
Sample: yeast
Setting: methotrexate growth selection, single substitutions
Added: (+)-ABA 200 µM
Baseline: wild-type fitted maximum
Direction: higher = stronger binding
Parent: PYL1, truncated, DHFR fusion (Arabidopsis thaliana); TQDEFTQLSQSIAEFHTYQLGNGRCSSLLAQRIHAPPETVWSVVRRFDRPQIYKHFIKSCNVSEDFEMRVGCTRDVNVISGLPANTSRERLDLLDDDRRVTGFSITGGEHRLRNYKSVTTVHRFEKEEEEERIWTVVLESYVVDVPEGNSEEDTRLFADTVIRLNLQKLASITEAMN; partner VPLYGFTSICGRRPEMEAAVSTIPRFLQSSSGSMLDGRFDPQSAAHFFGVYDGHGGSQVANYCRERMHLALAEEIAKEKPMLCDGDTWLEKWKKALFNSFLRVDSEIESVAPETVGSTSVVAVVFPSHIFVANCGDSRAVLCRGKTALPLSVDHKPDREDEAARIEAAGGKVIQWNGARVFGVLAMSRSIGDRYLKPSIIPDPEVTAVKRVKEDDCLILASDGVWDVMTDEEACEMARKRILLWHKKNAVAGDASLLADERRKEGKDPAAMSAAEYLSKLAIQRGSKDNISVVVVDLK
Variant | relative binding score [%]
R155K | 97.6
F157W | 13.7
Y115C | 12.4
F66D | 95.7
T173Q | 35.8
A35R | 42.1
Y141M | 17.7
T106A | 72.1
T160S | 79
W41A | -13.1
R111H | 49.9
V76A | 56.5
R49V | 84.9
E128D | 106
W134F | 104
I12A | 70.6
F124Q | 95.7
D95A | 55.8
T119M | 94.1
T86C | 99.3
T17Y | 79.5
M68S | 87.5
H55D | 91
V43A | 73.6

Set 3
Target: Histone acetyltransferase KAT6A, winged helix 2, GST fusion (KAT6A, Homo sapiens, UniProt Q92794, residues 85-181)
Technique: protein binding microarray
Form: double-stranded DNA, one strand shown
Sample: in vitro
Concentration: not given
Setting: 8-mer, flanks averaged, mean of 2 arrays, mostly near background
Baseline: not given
Direction: higher = stronger binding
Residues (chain): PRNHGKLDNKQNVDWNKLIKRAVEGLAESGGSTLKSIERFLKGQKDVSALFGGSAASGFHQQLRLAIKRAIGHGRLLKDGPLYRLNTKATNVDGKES
Oligonucleotide | E-score
TGCCGAAA | 0.114
CATTATAA | -0.0216
GTCCTGAA | -0.0274
CACGCAGC | -0.0279
ATCTCTCC | -0.0757
GCTGATCC | -0.00822
CAAGACTG | -0.167
ATATAATG | -0.236
CCTGGTCC | 0.0631
GCCATTAA | -0.00259
GGTTGGAC | -0.00176
ACCATAAC | 0.022
AGCGCGGC | 0.116
ACAGACGT | -0.0793
AGCCTGCA | 0.163
AATTTTGC | 0.0503
AGCCAGGC | 0.189
GATACGAC | -0.169
GACCAAGA | 0.0327
CCTCTCAA | -0.00407
AAATTTAC | 0.0525
ACGACGAT | -0.021
GGCTCGCA | 0.0799
CCCATGAA | -0.0403
ATTGTCCG | 0.0919

Set 4
Target: CCND2, cyclin fold, Cln2 fusion (human)
Technique: yeast growth competition, sequencing
Sample: yeast
Setting: weak parent motif
Baseline: not given
Direction: higher = stronger binding
Parent: CDKN1B docking peptide (human); PSACRNLFGPVDH
Variant | normalised enrichment score
PSACRNLFGPCDH [V11C] | -0.00446
PSACKNLLGPVDH [R5K F8L] | 0.122
PSACRNLFFPVDH [G9F] | 0.147
PSACRYLFGPVDH [N6Y] | -0.249
PSACRNLHGPVDH [F8H] | 0.183
PSTCRNLFGPVDH [A3T] | 0.13
PSACRNLFGPVDF [H13F] | 0.226
PQACRNLFGPVDH [S2Q] | -0.121
KSACRNLFGPVDH [P1K] | 0.413
PSACRKLFGPVDH [N6K] | 0.386
PSACRNLFGPYDH [V11Y] | 0.135
PSACRNLFGEVDH [P10E] | 0.196
PSACMNLFGPVDH [R5M] | 0.248
MSACRNLFGPVDH [P1M] | 0.394
PSACRNLFGDVDH [P10D] | 0.314
PAACRNLFGPVDH [S2A] | 0.0946
PSAERNLFGPVDH [C4E] | 0.184
PRACRNLFGPVDH [S2R] | 0.188
PSACRNLFMPVDH [G9M] | 0.229
PSACRNLFGPVGH [D12G] | 0.278
PSACRNLFGPWDH [V11W] | 0.415
PSACRNLFGFVDH [P10F] | 0.145
PSDCRNLFGPVDH [A3D] | -0.129
PSACRNLFAPVDH [G9A] | 0.228
PSACRTLFGPVDH [N6T] | 0.0159

Set 5
Target: Sal-like protein 4, full length isoform B (SALL4, Homo sapiens, UniProt Q9UJQ4-2, residues 1-616)
Technique: universal PBM
Form: double-stranded DNA, one strand shown
Sample: in vitro
Concentration: not given
Setting: 8-mer, flanks averaged, mean of replicates
Direction: higher = stronger binding
Oligonucleotide | E-score
GACGGCCA | -0.215
ACCTAGGT | -0.278
CGTCAGAG | -0.141
CCTTGTCG | 0.00631
ATTACTGA | 0.233
CAACTCAC | -0.0197
ACCGACTG | -0.328
GTGAAGCA | -0.0337
TACATGGA | 0.155
CGGTTTAA | -0.035
TGGCGACA | -0.041
GGTCCTCA | -0.115
ACGAGATC | 0.0303
ATCAGCGC | -0.157
GACACGGA | -0.168
GTCGGTAA | -0.058
ACGTGTTA | 0.177
CATCAGAA | 0.209
CAGGCTGC | -0.177
GGTTCAAA | -0.0117
ATTCAGTC | -0.0101
CCGCCATC | -0.281
CAATATCC | 0.147
AAGACCTT | 0.0566
GCACCGTA | -0.112

Set 6
Target: NFE2L3, bZIP domain (human)
Technique: DHFR protein complementation
Sample: yeast
Setting: single substitutions, most at no-binding floor
Baseline: wild-type JUN-FOS pair
Direction: higher = stronger binding
Parent: JUN, bZIP domain (human); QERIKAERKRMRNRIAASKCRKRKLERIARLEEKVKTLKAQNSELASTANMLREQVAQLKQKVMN; partner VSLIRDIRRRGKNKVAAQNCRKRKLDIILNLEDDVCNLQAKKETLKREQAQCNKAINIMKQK
Variant | binding fitness [natural log]
Q55V | -1.51
A46N | -1.47
A40L | -1.59
A49F | -1.51
Q55R | -1.5
L52S | -1.58
M51R | -1.46
A49V | -1.55
S47Q | -1.53
A49Q | -1.55
A29P | -1.55
A46D | -1.51
R30F | -1.49
M51V | -1.51
E44M | -1.4
A40S | -1.47
E54P | -1.51
Q41R | -1.51
Q55M | -1.41
R30K | -1.44
T48W | -1.41
L45A | -1.56
L38E | -1.54
S47M | -1.37
E44I | -1.6

Some of these lines once more (set 4):
Variant | normalised enrichment score
PSACRNLFGDVDH [P10D] | 0.314
PSACRNLFGPYDH [V11Y] | 0.135
PSACRNLFGEVDH [P10E] | 0.196
PSACRNLFFPVDH [G9F] | 0.147
PSTCRNLFGPVDH [A3T] | 0.13
PSACRNLFMPVDH [G9M] | 0.229
PRACRNLFGPVDH [S2R] | 0.188
PSACRNLFGPVGH [D12G] | 0.278
PSACRNLFGPVDF [H13F] | 0.226
MSACRNLFGPVDH [P1M] | 0.394
PSACRTLFGPVDH [N6T] | 0.0159
PSACRNLHGPVDH [F8H] | 0.183
PSACRYLFGPVDH [N6Y] | -0.249
PAACRNLFGPVDH [S2A] | 0.0946
PQACRNLFGPVDH [S2Q] | -0.121
PSACRNLFAPVDH [G9A] | 0.228
PSACRNLFGPCDH [V11C] | -0.00446
PSACRNLFGFVDH [P10F] | 0.145
